Measurements gathered from unrelated publications.
Every numbered part comes from another study and shows a few of its results, in no order. Substitutions count along the parent as printed.

Sample 1
Target: PABPC1L2, full length, GST fusion (mouse, UniProt A0ABA7IW68)
Technique: RNAcompete
Molecule type: RNA
Matrix: in vitro
Concentration: 20 nM
Notes: 7-mer, probes averaged, single round
Relative to: mean of 7-mers
Direction: higher = stronger binding
Target sequence (chain): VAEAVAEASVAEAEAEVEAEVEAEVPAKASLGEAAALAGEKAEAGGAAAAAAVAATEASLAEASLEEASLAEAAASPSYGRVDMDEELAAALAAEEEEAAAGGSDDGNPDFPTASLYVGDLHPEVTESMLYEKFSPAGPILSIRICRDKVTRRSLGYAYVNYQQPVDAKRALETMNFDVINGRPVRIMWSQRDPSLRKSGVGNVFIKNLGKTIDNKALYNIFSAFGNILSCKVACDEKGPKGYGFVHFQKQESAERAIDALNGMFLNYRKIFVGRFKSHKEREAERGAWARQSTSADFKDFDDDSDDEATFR
| Sequence | 7-mer Z-score |
| --- | --- |
| UACCUUU | -0.298 |
| UAGCUUG | -0.171 |
| GAAUAUC | -0.231 |
| CUCUUCG | -0.411 |
| UGUUAUG | -0.4 |
| UUAAUGA | -0.0772 |
| UAGCUAU | -0.2 |
| UCGAGAC | -0.0573 |
| GAAACAG | 2.12 |
| GACCACA | -0.0808 |
| GGAAUGG | 0.135 |
| CGCGCGG | -0.206 |
| GGGUAAG | 0.193 |
| UACCCAA | -0.141 |
| GCUGAUA | -0.119 |
| AAGAUGA | 0.37 |
| UUUUGCA | -0.211 |
| AGCAAGC | -0.0228 |
| UAUAAAA | 4.54 |
| ACAAGAG | 0.392 |

Sample 2
Target: RNA binding protein fox-1 homolog 2, RRM domain, GST-SBP tag (RBFOX2, Homo sapiens, UniProt O43251-10, residues 100-194)
Technique: RNA Bind-n-Seq
Molecule type: RNA
Matrix: in vitro
Concentration: 365 nM
Notes: natural RNA segment, single round, ends assumed
Relative to: no-protein control
Direction: higher = stronger binding
Construct (chain): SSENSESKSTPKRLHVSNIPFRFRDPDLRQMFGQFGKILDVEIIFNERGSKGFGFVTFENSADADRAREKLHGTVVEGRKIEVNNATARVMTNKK
| Sequence | RBNS enrichment (R) |
| --- | --- |
| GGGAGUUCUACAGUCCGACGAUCUGUAUACCCCAACAUCUUUUCCAUCUUAAUCCAGCAUCGGGCCAUUCUCAAUCCCUGGUAAUCACCUCCCUUUUACAUGGACAGACUUGAGGUGAGGCCUAAGUAUGAGGUGGAAUUCUCGGGUGCCAA | 0.763 |
| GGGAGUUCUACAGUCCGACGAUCAGUGUCUACCUUGGUACGCAGCCACCUCCUGCAUGCUGUGCAUGUUAUUGGGACUUGUAUUAUAGGUGAUGGUAUGUGAGAAUCCAGUUGGGACUCGCUGUUGCCAUCCUUGGAAUUCUCGGGUGCCAA | 1.21 |
| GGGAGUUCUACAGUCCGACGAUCUCGUUGGUUUUUGUUUGUUUACUUGGUUUUCUCAUGUCCAGCACGGAGGUCUCCAGUUCACAAGAGCUUCCUGGGAAGGAUAAUAAUCAUGUUUGUAGGAAUCUCAUUCCUGGAAUUCUCGGGUGCCAA | 0.562 |
| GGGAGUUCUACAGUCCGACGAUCUAGUGAUUGCAUCAAUUAUAACAUUUAUCAUUAGCAGUUGAGAGCACAUGUUCAUAUAGCAAUGUAAAAACCUACUAAUGAGUAUUUGGUAAUUUCCCAUUAGCAUAAUUUGGAAUUCUCGGGUGCCAA | 1.02 |
| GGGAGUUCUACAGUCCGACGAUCUAAACAUUUGCUUUAAGAAAACAGUCUUGAAUUUCACAUGCUGCUAUUUUUAUAUUUUGCCAUUUUACAGUACUGUUUUGUUUUGAAUUCAUGCAUAUCAUUGAAAAUUUUGGAAUUCUCGGGUGCCAA | 1.51 |
| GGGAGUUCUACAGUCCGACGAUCUUGGUAUUCACUUGGGUUUGAUAAUUGAUCUGAGCUACCUCAUUGAAUGUUUUUGGAAAGGUGUUUUUUGGUAUGCAAGUCAGCUUUGCCUCACAGUUGAAAAUGUUCGGUGGAAUUCUCGGGUGCCAA | 0.838 |
| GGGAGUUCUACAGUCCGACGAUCUGACCUCAAGAGAAACAGCCUAAGAAGCCCGCCUUCUGGUCCCAAUCUGCAGACCCUCCAGCAGUUGGCUGUUGAGUCCCUGCUGUGGAAGUUCUCUUGACUAUCACCUGUGGAAUUCUCGGGUGCCAA | 0.248 |
| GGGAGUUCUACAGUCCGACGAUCAGAGAGGUUCCCCACCCCUGUAACUCCUCACUGUACUGAUUUACUGGCGCAUGAAAUUCUAUUAAAAAUGCAUUCUUCUGAAUAAAAAGAGUAUUCACUAUUUAACUUCAUGGAAUUCUCGGGUGCCAA | 1.06 |
| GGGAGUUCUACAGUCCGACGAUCGAGUAACUGAAGCACAUUGGAAAGAUUCUCAAUUUUGUGUUUCCUGUAAAAACAGUGCUCUCUGCUGCUAGGACCUUUUUUCUGCUUCCUGUCAUUUUCAUGUGGCUUGAUGGAAUUCUCGGGUGCCAA | 0.376 |
| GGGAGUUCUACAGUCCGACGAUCUUGGAAUGUGACACAGCCUUUUUGAUCAUUUCUUUGAUGUGAAAAGCAUCUUUUGGUUAUCAGUUAAAUUGAGGUGGACAUUAUUUCCCCAAUUUCACAACAGGAUUCAUUGGAAUUCUCGGGUGCCAA | 0.307 |
| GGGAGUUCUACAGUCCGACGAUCGUAGAAGCAGGCUGGCUGGAUCGUGGCAUUAGAGGGAACUCUUGGUACCUGGAAAUGUGAAUCUGGAUUCUUACCUGUGUCAUCAGAGUAGUAAUGGAUUCAGUACUCCUUGGAAUUCUCGGGUGCCAA | 0.843 |
| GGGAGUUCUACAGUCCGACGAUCUGCUUGUGGUUUAGGUUCCCCUCUCCUUUUUUUCUUUUUAAUUCAAUUUGGAAUCAGAAAGCUGGAUUCUGGUAAAUGGUCUUGUGCCCUUUAUCCUACUCAUCCCCGAUUGGAAUUCUCGGGUGCCAA | 0.826 |

Sample 3
Target: ABI1, truncated, D143A, DHFR fusion (Arabidopsis thaliana, UniProt P49597)
Technique: DHFR PCA, dose-response
Matrix: yeast
Notes: Hill fit, mean, not affinity
Added: (+)-ABA, dose series
Direction: lower = more sensitive
Starting sequence: PYL1, truncated, DHFR fusion (Arabidopsis thaliana, UniProt Q8VZS8); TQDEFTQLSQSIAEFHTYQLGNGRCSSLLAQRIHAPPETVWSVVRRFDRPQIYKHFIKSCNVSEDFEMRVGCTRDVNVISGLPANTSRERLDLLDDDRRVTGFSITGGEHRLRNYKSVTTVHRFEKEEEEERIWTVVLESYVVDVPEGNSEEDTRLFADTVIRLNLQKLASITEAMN
| Variant | ABA EC50 |
| --- | --- |
| S9N | 8.03 µM |
| R123C | 3.72 µM |
| V100F | 99.3 µM |
| K58H | 5.26 µM |
| Y18N | 12 µM |
| A175V | 3.6 µM |
| H122N | 80.7 µM |
| R98H | 11.3 µM |
| D92T | 17.3 µM |
| Q10C | 3.12 µM |
| G21K | 2.61 µM |
| N85W | 7.48 µM |
| E14F | 32.8 µM |
| D75W | 1.11 µM |
| F124E | 4.77 µM |
| L164C | 0.711 µM |
| S26F | 8.36 µM |
| T173N | 59.6 µM |
| H55E | 3.06 µM |
| K58I | 71.2 µM |
| E4M | 1.7 µM |
| I79M | 7.34 µM |

Sample 4
Target: CCND2, cyclin fold, Cln2 fusion (human)
Technique: yeast growth competition, sequencing
Matrix: yeast
Notes: weak parent motif
Relative to: not given
Direction: higher = stronger binding
Starting sequence: HIRA docking peptide (human); SLSKRKLELEVET; partner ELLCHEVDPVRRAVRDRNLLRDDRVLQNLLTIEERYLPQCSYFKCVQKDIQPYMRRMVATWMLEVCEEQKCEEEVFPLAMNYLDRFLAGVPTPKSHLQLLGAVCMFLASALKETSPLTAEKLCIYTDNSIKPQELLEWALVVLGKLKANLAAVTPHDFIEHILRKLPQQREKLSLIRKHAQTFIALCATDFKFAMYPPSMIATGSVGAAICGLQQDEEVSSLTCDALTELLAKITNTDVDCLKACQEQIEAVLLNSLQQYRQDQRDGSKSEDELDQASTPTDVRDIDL
| Variant | normalised enrichment score |
| --- | --- |
| T13A | 0.365 |
| L9F | 0.227 |
| E10A | -0.0468 |
| S3A | 0.045 |
| K4A | -0.0808 |
| R5A | -0.274 |
| L2A | -0.0873 |

Sample 5
Target: Ras GTPase-activating protein-binding protein 1, full length (G3BP1, Homo sapiens, UniProt Q13283)
Sequence of UniProt Q13283 (whole entry, looked up): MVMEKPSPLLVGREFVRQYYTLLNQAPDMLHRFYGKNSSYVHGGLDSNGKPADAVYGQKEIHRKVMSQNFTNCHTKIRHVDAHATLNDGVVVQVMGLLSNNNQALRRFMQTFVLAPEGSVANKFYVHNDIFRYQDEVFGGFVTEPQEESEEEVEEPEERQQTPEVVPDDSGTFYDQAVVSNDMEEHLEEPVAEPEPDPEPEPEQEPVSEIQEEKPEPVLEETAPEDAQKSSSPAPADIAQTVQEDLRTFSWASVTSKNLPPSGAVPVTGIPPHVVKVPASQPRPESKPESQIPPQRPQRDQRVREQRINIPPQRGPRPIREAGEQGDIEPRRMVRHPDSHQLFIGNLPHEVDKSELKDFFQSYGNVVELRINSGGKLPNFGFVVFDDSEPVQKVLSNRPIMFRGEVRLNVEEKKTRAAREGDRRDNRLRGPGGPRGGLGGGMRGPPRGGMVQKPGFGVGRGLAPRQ
Technique: RNA Bind-n-Seq
Molecule type: RNA
Matrix: in vitro
Concentration: 200 nM
Notes: whole 134-nt RNA, ends assumed
Added: 150 mM KCl
Relative to: input library
Direction: higher = stronger binding
| Sequence | log2 enrichment |
| --- | --- |
| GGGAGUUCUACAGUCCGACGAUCGCAGGAAGUAAAAACAAAUGGAAAUGCUUCGGAUAGUGGCAGGGGUGGGGGUUGCUAAGGAAAGGGUGAAAUGGGAGUGGGUAAAGAGUUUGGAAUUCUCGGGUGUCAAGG | 0.618 |
| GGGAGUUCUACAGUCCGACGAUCUGGCCCUGGUGGCAUGCGGGGAGGAAGAGGUGGCCUCAUGGAUCGUGGUGGUCCCGGUGGAAUGUUCAGAGGUGGCCCUGGUGGAGACAGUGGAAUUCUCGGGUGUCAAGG | 0.444 |
| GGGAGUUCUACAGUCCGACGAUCUGGCCCUGGUGGCAGGCGGGGAGGAAGAGGUGGCCUCAUGGAUCGUGGUGGUCCCGGUGGAAUGUUCAGAGGUGGCCGUGGUGGAGACAGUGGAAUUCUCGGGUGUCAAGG | 0.553 |
| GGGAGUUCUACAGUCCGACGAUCUAACCUUAGAGGAGGAUCUGAUGGAUAUGGCAGUGGACGUGGAUUUGGGGAUGGCUAUAAUGGGUAUGGAGGAGGACCUGGAGGUGGCAAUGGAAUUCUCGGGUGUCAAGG | 0.532 |
| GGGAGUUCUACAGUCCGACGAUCCCUGUGCUACACAUCGUAUGUACCGAAUCGGGGUUUUUUUGGUUUUUUUGGUUUUUUUGGGAAAGUAUUAUGUUACGCCGUUCGGAUCUGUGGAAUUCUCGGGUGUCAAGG | -0.953 |
| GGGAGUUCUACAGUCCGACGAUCCAAAAACAACACGCACCCACACAGACACAGAGGGAAGGGGUUGGGAUGGGGACAGGGUGCACAGCAGGGCGGGGUAGGACCCCAGCCCCUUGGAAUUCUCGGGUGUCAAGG | 1.99 |
| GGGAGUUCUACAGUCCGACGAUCUUGAGAAGAAGCAAAAAGAGAUGGAUGAAGCUGCUACGGUGAGAGAAAACCCACUAUCGAUUCCACUCACCACUUACCUCCUUCCCUUACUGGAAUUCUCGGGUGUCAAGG | 0.55 |
| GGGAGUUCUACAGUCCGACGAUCUGGAAUAAGCCUGGUGCUUUCUGGCUAUGUUUGUCAUAGGCUGACCUGGAUAUCACCGAAAUAAACAAACUAACAGCAGAAGCUAUUCAGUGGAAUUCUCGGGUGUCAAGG | -0.621 |
| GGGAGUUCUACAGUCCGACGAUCGUCCUGUGCUACACAUCGUAUGUACCGAAUCGGGAAAGGGAAAAAAAGGGUUUUUGGGAAAGUAUUAUGUUACGCCGUUCGGAUCUGCACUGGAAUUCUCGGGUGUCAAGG | -0.479 |
| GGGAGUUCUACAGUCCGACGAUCCAAGUCCUGUGCUACACAUCGUAUGUACCGAAUCGGUUUUUGGUGGAAAAAAAGGAAAGUAUUAUGUUACGCCGUUCGGAUCUGCACUUCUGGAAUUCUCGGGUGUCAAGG | -0.931 |
| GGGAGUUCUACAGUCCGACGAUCCACAAAAAACACGCACCCACACAGACACAGAGGGAAGGGGUUGGGAUGGGGACAGGGUGCACAGCAGGGCGGGGUAGGACCCCAGCCCCUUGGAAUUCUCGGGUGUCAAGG | 1.81 |
| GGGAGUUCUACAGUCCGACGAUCUGGCCCUGGUGGCAUGCGGGGAGGAAGAGGUGGCCUCAUGGAUCGUGGUGGUCCCUGUGGAAUGUUCAGAGGUGGCCGUGGUGGAGACAGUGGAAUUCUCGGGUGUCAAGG | -0.0525 |
| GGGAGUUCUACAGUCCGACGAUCUGGCCCUGGUGGCAUGCGGGGAGGAAGAGGUGGCCUCAUGGGUCGUGGUGGUCCCGGUGGAAUGUUCAGAGGUGGCCGUGGUGGAGACAGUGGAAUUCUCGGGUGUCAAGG | 0.155 |
| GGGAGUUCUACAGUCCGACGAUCUGGGAGGUGGAUUUUGUUUAUUUUUUUAGCUCAUUUCCAGGGGUGGGAAUUUUUUUUUAAUAUGUGUCAUGAAUAAAGUUGUUUUUGAAGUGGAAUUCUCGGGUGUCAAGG | 0.651 |
